Experimental data pooled from the literature.
Each line is one published result; not all experiments were run side by side. Numbers after ± are the reported error.
MCA2: Metacaspase-2 (MCA2, Trypanosoma brucei brucei, UniProt Q585F3)
Sequence of UniProt Q585F3 (whole entry, looked up): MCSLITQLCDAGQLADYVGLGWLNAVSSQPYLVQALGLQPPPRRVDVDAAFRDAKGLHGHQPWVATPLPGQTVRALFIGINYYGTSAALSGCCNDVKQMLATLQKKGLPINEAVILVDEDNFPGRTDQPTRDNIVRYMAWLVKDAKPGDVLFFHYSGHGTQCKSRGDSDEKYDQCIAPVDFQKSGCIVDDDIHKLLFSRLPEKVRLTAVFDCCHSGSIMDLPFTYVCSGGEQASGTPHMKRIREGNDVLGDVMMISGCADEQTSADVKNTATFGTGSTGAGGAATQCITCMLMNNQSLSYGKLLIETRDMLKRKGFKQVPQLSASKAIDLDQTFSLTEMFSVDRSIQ
blaNDM-1: Metallo-beta-lactamase type 2 (blaNDM-1, Klebsiella pneumoniae, UniProt C7C422)
Sequence of UniProt C7C422 (whole entry, looked up): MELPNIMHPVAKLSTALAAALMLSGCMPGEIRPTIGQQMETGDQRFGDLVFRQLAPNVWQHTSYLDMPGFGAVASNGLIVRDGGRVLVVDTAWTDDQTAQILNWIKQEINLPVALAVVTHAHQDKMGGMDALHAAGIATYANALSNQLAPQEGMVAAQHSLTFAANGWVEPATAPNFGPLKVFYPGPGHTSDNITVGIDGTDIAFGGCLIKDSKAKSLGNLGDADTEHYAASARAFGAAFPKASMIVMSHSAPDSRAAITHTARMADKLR
Sequence of UniProt P27361 (whole entry, looked up): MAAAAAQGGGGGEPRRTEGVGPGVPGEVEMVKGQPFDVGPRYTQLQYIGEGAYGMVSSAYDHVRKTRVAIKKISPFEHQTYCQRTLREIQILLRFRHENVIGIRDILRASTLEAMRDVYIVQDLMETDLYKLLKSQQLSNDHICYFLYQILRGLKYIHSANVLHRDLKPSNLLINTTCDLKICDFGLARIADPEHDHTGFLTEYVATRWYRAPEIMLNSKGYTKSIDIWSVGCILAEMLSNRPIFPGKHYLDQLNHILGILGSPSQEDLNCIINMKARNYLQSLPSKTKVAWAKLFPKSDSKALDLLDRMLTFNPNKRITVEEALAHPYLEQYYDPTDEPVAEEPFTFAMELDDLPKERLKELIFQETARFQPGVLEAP
Sequence of UniProt A0A024B7W1 (whole entry, looked up): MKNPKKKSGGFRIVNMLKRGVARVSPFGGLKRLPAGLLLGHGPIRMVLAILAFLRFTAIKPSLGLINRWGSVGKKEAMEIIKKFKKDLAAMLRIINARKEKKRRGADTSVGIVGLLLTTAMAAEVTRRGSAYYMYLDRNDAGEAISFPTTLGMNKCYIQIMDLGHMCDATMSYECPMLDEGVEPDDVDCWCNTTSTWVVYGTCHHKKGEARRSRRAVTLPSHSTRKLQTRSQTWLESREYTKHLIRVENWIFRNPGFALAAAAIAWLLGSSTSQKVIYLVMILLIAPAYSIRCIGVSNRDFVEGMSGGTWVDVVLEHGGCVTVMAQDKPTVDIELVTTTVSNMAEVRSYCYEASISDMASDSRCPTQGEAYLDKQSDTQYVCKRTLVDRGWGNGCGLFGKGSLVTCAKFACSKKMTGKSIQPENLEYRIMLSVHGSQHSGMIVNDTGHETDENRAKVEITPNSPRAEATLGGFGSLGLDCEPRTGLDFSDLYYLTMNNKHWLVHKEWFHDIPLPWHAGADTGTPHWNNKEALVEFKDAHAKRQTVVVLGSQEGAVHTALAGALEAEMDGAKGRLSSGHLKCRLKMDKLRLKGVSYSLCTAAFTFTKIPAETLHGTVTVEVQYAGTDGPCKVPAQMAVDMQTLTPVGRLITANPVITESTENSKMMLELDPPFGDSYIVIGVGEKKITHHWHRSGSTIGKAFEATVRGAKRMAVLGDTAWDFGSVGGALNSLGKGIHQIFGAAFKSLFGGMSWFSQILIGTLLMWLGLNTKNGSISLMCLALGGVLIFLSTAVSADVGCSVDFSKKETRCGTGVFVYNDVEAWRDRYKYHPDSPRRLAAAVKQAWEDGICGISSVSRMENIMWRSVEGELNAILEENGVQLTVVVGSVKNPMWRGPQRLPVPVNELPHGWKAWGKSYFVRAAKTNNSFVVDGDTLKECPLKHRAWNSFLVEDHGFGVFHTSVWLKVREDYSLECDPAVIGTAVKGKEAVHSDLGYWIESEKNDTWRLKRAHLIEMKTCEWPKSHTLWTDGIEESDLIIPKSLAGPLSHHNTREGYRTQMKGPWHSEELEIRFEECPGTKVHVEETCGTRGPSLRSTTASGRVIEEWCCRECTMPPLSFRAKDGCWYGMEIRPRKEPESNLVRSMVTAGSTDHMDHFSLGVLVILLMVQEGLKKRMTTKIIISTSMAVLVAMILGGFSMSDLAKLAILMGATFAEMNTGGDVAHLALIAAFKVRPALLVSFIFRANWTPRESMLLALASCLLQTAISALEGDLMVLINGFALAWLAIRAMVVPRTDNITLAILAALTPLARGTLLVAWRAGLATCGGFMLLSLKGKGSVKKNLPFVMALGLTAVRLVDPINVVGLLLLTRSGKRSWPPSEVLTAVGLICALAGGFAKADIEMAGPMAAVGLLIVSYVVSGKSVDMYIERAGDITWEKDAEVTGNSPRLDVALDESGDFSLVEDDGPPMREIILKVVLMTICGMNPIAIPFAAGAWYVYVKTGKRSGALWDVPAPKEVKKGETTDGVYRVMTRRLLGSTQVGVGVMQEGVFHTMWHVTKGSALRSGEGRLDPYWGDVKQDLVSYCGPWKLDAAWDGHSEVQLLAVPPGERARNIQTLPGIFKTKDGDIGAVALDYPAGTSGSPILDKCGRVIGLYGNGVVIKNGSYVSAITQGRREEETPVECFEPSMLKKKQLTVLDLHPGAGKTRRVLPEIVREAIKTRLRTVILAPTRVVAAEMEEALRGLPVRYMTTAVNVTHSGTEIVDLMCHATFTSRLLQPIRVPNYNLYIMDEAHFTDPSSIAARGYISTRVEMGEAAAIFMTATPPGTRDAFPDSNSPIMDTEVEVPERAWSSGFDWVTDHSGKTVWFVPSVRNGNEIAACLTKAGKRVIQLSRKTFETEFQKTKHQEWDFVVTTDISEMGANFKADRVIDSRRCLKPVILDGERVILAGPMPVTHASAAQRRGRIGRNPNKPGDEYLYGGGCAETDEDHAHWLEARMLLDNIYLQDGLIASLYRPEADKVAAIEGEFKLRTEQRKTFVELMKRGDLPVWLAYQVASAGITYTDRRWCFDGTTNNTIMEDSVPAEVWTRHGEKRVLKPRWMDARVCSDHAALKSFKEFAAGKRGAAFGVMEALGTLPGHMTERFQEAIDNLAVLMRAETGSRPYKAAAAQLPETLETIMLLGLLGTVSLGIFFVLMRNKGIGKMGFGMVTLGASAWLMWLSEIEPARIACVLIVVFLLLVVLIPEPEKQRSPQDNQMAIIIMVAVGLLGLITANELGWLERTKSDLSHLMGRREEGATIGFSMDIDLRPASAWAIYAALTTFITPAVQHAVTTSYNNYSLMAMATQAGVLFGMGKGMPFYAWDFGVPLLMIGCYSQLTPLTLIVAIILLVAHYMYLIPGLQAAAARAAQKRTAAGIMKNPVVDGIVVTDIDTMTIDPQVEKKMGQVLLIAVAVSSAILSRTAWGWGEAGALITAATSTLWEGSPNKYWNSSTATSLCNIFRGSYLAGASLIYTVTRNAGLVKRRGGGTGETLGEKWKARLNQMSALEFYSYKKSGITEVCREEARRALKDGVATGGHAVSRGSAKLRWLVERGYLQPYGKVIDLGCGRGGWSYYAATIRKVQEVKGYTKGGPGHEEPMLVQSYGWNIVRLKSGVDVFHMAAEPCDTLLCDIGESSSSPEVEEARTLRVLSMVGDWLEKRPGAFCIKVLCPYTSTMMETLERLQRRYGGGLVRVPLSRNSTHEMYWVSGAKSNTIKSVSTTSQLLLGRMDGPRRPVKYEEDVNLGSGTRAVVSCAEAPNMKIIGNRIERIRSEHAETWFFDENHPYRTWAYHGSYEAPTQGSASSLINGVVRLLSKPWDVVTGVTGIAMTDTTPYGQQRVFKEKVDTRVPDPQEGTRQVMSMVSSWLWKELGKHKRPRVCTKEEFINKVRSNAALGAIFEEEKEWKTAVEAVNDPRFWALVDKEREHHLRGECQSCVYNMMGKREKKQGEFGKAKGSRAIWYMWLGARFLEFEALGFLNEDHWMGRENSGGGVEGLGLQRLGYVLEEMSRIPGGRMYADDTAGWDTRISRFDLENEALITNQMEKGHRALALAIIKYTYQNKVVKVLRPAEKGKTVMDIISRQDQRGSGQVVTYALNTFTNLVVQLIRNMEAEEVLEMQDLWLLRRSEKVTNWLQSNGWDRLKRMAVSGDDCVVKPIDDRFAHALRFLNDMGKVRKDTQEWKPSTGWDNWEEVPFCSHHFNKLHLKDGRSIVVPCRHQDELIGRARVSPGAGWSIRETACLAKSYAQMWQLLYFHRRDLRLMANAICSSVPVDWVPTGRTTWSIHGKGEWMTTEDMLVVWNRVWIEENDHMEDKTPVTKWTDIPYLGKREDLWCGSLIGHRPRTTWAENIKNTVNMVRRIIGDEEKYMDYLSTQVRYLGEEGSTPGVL
Sequence of UniProt P26885 (whole entry, looked up): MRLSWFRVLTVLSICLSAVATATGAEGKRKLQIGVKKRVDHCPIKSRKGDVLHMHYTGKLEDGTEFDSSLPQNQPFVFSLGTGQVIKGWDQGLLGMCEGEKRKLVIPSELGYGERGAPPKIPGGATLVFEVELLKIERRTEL
Sequence of UniProt P41143 (whole entry, unmodified, looked up): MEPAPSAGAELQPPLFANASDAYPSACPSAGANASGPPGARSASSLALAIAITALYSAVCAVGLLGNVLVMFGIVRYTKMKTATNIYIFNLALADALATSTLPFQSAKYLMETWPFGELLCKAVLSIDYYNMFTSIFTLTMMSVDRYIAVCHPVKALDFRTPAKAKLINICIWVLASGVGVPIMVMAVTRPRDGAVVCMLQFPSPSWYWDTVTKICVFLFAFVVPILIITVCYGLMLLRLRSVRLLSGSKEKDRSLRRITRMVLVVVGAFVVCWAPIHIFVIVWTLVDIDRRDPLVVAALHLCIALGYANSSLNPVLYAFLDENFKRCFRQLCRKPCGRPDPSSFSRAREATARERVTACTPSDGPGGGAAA

CC(C)(C)C(=O)OCOP(=O)(OCOC(=O)C(C)(C)C)C1CCCN(O)C1=O (stereo not drawn)
TGI (DU-145): > 100 µM

O=C1NC2(CC2)COc2ncc(F)cc2[C@H]2COCCN2c2ccn3ncc1c3n2
organ-to-brain weight ratio (Sprague-Dawley rat, male, testes; oral, 10 mg/kg/day, 4 weeks dosing, end of recovery): 157 ± 10%

CN(C)[C@H]1C[C@@]23CC[C@@]4(O2)C(=CC[C@]2(C)[C@@H](c5ccc6ccncc6c5)CC[C@H]24)C=C3[C@@H](O)[C@@H]1O
inhibition (Mitogen-activated protein kinase 3 (MAPK3, Homo sapiens, UniProt P27361); ATP probe labelling, inhibitor, KiNativ profiling; 1 µM): 2.4%

COc1cc(C[C@H](C)[C@H](C)Cc2ccc3c(c2)OCO3)ccc1O
Ki (Liver carboxylesterase 1 (CES1, Homo sapiens, UniProt P23141); enzyme activity, inhibitor): 564 nM

CC(C)CCNC(=O)[C@H](CCCCN)NC(=O)[C@H](CCCCN)NC(=O)Cc1cccc(CNC(=O)[C@@H](C)NC(=N)N)c1
Ki (Genome polyprotein, NS2B-NS3 protease (ZIKV, UniProt A0A024B7W1); NS2B-NS3 protease activity, inhibitor): > 1000 nM

CC(=O)N[C@@H](CC(C)C)C(=O)N[C@@H](CC(C)C)C(=O)N[C@@H](CC(C)C)C(=O)N[C@@H](CC(C)C)C(=O)N[C@@H](CC(C)C)C(=O)N[C@@H](CC(C)C)C(=O)N[C@@H](CCCNC(=N)N)C(=O)N[C@H](C(=O)N[C@@H](CCCCN)C(=O)N[C@@H](CCCNC(=N)N)C(N)=O)C(C)C
Ki (Neuroendocrine convertase 2 (Homo sapiens, UniProt P16519); enzyme activity, inhibitor): 1300 nM

C[C@H](NC(=O)[C@H](CCCCN)NC(=O)c1ccccc1N)C(=O)N[C@@H](CCC(N)=O)C(=O)N[C@@H](CO)C(=O)N[C@@H](CO)C(=O)N[C@@H](C)C(=O)N[C@@H](CCC(N)=O)C(=O)NCCNc1ccc([N+](=O)[O-])cc1[N+](=O)[O-]
Ki (MCA2; enzyme activity, competitive inhibitor; Trypanosoma brucei; with: Z-FR-AMC substrate): 5700 nM

CC[C@H](C)[C@H](NC(=O)[C@@H]1CCCN1C(=O)[C@H](CCC(=O)O)NC(=O)[C@H](CCSC)NC(=O)CNC(=O)[C@H](CC(N)=O)NC(=O)CNC(=O)CNC(=O)[C@H](CCC(=O)O)NC(=O)CNC(=O)[C@H](CCCNC(=N)N)NC(=O)[C@H](CCC(N)=O)NC(=O)[C@H](Cc1ccc(O)cc1)NC(=O)[C@H](CC(C)C)NC(=O)[C@H](CCCCN)NC(=O)[C@@H]1CCCN1C(=O)[C@H](CCC(N)=O)NC(=O)[C@H](C)NC(=O)[C@@H](NC(=O)[C@H](CCC(=O)O)NC(=O)[C@H](C)NC(=O)[C@H](CCC(=O)O)NC(=O)[C@@H](NC(=O)[C@@H]1CCCN1C(=O)[C@@H](N)CCCCN)C(C)C)C(C)C)C(=O)N1CCC[C@H]1C(=O)N[C@@H](CCC(=O)O)C(=O)N[C@@H](CC(=O)O)C(=O)N[C@H](C(=O)N[C@@H](CC(C)C)C(=O)N[C@@H](CC(N)=O)C(=O)N[C@@H](CCC(=O)O)C(=O)N[C@@H](C)C(=O)N[C@@H](CC(C)C)C(=O)N[C@@H](CC(N)=O)C(=O)N[C@@H](C)C(=O)O)C(C)C
Ki (Prothrombin (F2, Homo sapiens, UniProt P00734); enzyme activity, inhibitor, absorbance; pH 8): 0.0282 nM

O=C1NC(=O)c2c1c1cc(F)c[n+]3c1c1c2c2cc(O)ccc2[n]1[Ru-4]312([N]=C=S)[S+]3CC[S+]1CC[S+]2CC3 (stereo not drawn)
remaining activity (Receptor-type tyrosine-protein kinase FLT3 (FLT3, Homo sapiens, UniProt P36888, D835Y); enzyme activity; 100 nM, human enzyme, with: 10 µM ATP; baseline: untreated): -3%

COc1ccccc1-c1n[nH]c2nc(NC3CCN(C(=O)Cc4ccc(F)cc4F)CC3)ncc12
relative abundance (bead binding, competition bead pull-down, item: LMJF.36.0990; Leishmania donovani axenic amastigote extract; 10 µM; baseline: vehicle): 1.38

C[C@H](NC(=O)[C@H](CCCCN)NC(=O)c1ccccc1N)C(=O)N[C@@H](Cc1ccccc1)C(=O)N[C@@H](CO)C(=O)N[C@@H](CO)C(=O)N[C@@H](C)C(=O)N[C@@H](CCC(N)=O)C(=O)NCCNc1ccc([N+](=O)[O-])cc1[N+](=O)[O-]
Ki (MCA2; enzyme activity, competitive inhibitor; Trypanosoma brucei; with: Z-FR-AMC substrate): 4200 nM

CCCC[C@@H]1NC(=O)[C@@H](CCCCN)NC(=O)[C@H]2CCCN2C(=O)[C@H](CCC(=O)O)NC(=O)[C@@H]2C[C@@H](O)CN2C(=O)[C@H](Cc2ccccc2CN)NC(=O)[C@@H]2CCCN2C(=O)[C@@H](CS)NC1=O
Ki (blaNDM-1; enzyme activity, inhibitor; with: nitrocefin 1.5 µM): 2760 nM

Cc1cc(O)cc(C)c1C[C@H](N)C(=O)N[C@H](CCCNC(=N)N)C(=O)N[C@@H](Cc1ccccc1)C(=O)N(C)CC(=O)N(C)Cc1cc(C(F)(F)F)cc(C(F)(F)F)c1
Ki (Delta-type opioid receptor (OPRD1, Homo sapiens, UniProt P41143, D210A)): 27.1 nM

COc1ccc(CC[C@H]2OC(=O)[C@@H]3CCCCN3C(=O)C(=O)C(C)(C)COC(=O)/C=C/CCN(C)C(=O)[C@H](CC(C)C)N(C)C(=O)[C@@H]3CCCN3C(=O)[C@H](Cc3ccccc3)N(C)C(=O)[C@H](c3ccccc3)NC(=O)CCC(=O)Nc3cccc2c3)cc1OC
Ki (Peptidyl-prolyl cis-trans isomerase FKBP2 (Homo sapiens, UniProt P26885); enzyme activity, inhibitor): > 5000 nM

CC(C)C[C@@H]1NC(=O)[C@@H]2CCCN2C(=O)[C@@H](CS)NC(=O)[C@H](Cc2ccc(O)cc2)NC(=O)[C@@H](CCCNC(=N)N)NC(=O)[C@@H]([C@H](C)O)NC(=O)C(C)(C)NC(=O)[C@@H]2CCCN2C1=O
Ki (blaNDM-1; enzyme activity, inhibitor; with: nitrocefin 1.5 µM): 19600 nM

Some of these lines once more:
CC[C@H](C)[C@H](NC(=O)[C@@H]1CCCN1C(=O)[C@H](CCC(=O)O)NC(=O)[C@H](CCSC)NC(=O)CNC(=O)[C@H](CC(N)=O)NC(=O)CNC(=O)CNC(=O)[C@H](CCC(=O)O)NC(=O)CNC(=O)[C@H](CCCNC(=N)N)NC(=O)[C@H](CCC(N)=O)NC(=O)[C@H](Cc1ccc(O)cc1)NC(=O)[C@H](CC(C)C)NC(=O)[C@H](CCCCN)NC(=O)[C@@H]1CCCN1C(=O)[C@H](CCC(N)=O)NC(=O)[C@H](C)NC(=O)[C@@H](NC(=O)[C@H](CCC(=O)O)NC(=O)[C@H](C)NC(=O)[C@H](CCC(=O)O)NC(=O)[C@@H](NC(=O)[C@@H]1CCCN1C(=O)[C@@H](N)CCCCN)C(C)C)C(C)C)C(=O)N1CCC[C@H]1C(=O)N[C@@H](CCC(=O)O)C(=O)N[C@@H](CC(=O)O)C(=O)N[C@H](C(=O)N[C@@H](CC(C)C)C(=O)N[C@@H](CC(N)=O)C(=O)N[C@@H](CCC(=O)O)C(=O)N[C@@H](C)C(=O)N[C@@H](CC(C)C)C(=O)N[C@@H](CC(N)=O)C(=O)N[C@@H](C)C(=O)O)C(C)C
Ki (Prothrombin (F2, Homo sapiens, UniProt P00734); enzyme activity, inhibitor, absorbance; pH 8): 0.0282 nM
